# Results collected from several papers.
# Parts stem from different laboratories: compare values within a part only.
# Sequence of UniProt O14936 (whole entry, looked up): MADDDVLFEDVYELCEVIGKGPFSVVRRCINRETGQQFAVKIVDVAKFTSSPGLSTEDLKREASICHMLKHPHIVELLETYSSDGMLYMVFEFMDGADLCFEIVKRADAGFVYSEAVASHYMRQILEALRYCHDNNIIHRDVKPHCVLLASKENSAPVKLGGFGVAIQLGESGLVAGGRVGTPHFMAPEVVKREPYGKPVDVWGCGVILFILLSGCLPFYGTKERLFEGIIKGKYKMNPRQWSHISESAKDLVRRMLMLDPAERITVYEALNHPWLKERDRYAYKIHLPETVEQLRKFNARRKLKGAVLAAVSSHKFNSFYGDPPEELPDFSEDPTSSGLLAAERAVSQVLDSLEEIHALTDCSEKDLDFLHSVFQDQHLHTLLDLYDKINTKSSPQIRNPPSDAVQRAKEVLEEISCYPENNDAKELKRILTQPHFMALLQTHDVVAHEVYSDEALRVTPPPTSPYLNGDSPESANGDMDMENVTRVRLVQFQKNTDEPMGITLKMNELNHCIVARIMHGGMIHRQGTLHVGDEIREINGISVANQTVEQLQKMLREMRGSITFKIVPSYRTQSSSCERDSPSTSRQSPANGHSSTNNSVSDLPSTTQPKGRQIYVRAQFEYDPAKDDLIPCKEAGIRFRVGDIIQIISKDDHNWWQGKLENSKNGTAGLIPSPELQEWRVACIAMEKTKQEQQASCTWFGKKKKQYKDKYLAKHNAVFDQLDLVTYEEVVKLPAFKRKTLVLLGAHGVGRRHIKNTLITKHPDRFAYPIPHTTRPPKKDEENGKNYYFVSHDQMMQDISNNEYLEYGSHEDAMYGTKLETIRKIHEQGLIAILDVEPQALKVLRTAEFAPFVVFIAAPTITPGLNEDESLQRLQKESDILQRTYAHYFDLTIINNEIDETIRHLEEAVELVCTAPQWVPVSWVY
# Sequence of UniProt P80192 (whole entry, looked up): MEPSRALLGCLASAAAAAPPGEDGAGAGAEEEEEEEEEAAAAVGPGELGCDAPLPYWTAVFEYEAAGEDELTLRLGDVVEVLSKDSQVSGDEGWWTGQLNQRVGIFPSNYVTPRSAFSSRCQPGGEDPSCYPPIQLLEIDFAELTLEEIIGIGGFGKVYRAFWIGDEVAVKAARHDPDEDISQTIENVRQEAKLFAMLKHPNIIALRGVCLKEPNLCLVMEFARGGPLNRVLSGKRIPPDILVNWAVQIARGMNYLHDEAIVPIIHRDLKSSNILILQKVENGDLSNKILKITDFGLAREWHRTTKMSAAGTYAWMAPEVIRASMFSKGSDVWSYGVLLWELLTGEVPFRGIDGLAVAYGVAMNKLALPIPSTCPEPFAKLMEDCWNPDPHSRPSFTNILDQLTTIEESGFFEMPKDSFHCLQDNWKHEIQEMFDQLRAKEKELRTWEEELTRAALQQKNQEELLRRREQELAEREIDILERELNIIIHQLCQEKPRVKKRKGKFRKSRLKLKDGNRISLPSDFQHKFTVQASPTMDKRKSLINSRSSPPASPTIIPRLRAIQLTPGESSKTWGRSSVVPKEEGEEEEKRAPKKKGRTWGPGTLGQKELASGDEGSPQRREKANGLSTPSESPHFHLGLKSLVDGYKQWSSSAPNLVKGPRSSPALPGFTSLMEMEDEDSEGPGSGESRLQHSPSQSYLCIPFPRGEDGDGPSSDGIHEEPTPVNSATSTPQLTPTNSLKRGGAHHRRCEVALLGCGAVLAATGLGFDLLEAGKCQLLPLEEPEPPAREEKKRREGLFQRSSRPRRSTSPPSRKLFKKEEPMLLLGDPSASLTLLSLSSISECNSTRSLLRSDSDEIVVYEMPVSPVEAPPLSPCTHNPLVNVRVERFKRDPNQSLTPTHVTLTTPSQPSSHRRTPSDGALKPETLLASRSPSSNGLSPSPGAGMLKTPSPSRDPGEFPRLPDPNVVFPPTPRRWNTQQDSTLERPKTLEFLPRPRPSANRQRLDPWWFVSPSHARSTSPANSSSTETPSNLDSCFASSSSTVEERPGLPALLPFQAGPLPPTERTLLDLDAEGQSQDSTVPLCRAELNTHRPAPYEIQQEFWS
# Sequence of UniProt Q8TD08 (whole entry, looked up): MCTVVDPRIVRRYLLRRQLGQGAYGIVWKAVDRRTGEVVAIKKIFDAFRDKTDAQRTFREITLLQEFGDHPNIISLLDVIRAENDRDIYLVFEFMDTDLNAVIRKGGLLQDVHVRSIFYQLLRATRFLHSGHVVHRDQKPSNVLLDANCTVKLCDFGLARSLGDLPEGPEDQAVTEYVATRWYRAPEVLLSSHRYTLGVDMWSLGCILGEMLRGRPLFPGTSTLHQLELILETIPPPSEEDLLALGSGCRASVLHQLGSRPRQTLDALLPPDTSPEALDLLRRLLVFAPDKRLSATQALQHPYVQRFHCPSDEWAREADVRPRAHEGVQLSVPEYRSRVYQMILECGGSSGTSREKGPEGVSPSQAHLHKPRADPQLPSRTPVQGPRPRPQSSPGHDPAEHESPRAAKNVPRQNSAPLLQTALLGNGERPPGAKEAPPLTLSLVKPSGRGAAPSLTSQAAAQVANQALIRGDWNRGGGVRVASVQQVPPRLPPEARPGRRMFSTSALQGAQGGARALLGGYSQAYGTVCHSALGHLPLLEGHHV
# Sequence of UniProt Q15418 (whole entry, looked up): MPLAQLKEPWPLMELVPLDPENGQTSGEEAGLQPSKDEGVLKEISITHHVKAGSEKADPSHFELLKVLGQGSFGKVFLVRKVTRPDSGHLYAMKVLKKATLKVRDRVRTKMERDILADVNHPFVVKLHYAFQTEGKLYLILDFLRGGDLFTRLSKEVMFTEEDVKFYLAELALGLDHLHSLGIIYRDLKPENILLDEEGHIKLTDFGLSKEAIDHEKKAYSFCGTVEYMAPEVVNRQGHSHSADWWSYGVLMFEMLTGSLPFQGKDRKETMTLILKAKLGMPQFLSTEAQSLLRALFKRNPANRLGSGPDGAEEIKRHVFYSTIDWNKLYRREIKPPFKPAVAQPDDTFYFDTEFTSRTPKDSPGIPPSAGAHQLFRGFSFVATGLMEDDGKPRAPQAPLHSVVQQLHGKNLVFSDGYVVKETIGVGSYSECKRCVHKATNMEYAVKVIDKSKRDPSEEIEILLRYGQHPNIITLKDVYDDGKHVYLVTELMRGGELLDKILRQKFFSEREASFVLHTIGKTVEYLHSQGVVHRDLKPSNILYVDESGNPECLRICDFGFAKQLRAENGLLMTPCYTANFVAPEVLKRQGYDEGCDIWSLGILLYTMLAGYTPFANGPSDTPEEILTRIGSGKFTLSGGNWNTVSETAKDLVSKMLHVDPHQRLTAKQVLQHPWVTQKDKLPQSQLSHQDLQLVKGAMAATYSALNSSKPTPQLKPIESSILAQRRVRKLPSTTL
# Sequence of UniProt O15530 (whole entry, looked up): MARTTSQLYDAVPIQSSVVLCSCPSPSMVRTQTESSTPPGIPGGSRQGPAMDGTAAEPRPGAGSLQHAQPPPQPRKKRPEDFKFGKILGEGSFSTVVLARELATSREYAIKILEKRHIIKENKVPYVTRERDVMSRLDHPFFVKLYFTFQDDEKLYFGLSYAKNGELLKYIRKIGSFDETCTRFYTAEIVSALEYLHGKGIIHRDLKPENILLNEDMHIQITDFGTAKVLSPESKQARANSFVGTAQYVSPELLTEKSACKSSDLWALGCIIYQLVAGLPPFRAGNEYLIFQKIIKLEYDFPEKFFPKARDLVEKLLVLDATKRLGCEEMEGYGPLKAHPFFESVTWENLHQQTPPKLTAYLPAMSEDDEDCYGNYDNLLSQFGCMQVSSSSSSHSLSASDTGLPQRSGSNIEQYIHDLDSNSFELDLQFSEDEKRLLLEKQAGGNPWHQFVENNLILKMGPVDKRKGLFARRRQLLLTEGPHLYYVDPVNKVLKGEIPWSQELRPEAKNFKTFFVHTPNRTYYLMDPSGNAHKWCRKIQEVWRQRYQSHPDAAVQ
# Sequence of UniProt Q9BYT3 (whole entry, looked up): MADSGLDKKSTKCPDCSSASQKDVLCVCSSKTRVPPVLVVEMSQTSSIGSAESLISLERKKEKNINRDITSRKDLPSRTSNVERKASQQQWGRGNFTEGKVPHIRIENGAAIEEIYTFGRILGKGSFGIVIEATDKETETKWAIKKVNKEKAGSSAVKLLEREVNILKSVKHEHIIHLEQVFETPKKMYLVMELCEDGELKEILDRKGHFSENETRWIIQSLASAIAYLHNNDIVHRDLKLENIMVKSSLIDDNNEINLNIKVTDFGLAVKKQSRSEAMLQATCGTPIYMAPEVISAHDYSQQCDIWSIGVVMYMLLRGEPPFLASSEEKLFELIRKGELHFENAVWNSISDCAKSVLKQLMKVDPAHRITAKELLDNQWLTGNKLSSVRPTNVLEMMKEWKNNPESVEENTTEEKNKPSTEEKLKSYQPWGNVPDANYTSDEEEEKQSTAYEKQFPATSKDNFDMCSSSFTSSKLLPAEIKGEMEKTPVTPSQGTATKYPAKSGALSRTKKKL

# Block 1
# SMILES: CC(=O)N1CCC(c2ccc(C(=O)NC(=N)N)cc2C(F)(F)F)CC1
# Observed: cell-free assay
# Method: competition with immobilised ligand
# Tested at: 1 µM
target,remaining binding
"PIM3 (Homo sapiens, UniProt Q86V86)",100%
"MAPK12 (Homo sapiens, UniProt P53778)",77%
"MAP3K9 (Homo sapiens, UniProt P80192)",100%
"Ribosomal protein S6 kinase alpha-1, N-terminal kinase domain (RPS6KA1, Homo sapiens, UniProt Q15418)",100%
"PDPK1 (Homo sapiens, UniProt O15530)",100%
"RIOK2 (Homo sapiens, UniProt Q9BVS4)",100%
"MAPK14 (Homo sapiens, UniProt Q16539)",100%
"TSSK1B (Homo sapiens, UniProt Q9BXA7)",100%
"STK33 (Homo sapiens, UniProt Q9BYT3)",100%
"CASK (Homo sapiens, UniProt O14936)",100%
"MTOR (Homo sapiens, UniProt P42345)",100%
"Tyrosine-protein kinase JAK1, JH1 (JAK1, Homo sapiens, UniProt P23458)",100%
"MAPK15 (Homo sapiens, UniProt Q8TD08)",100%

# Block 2
# SMILES: CC(C)n1cnc(-c2ccc(F)cc2)c1-c1ncc(C(=O)Nc2ccc(N3CCN(C)CC3)cc2)[nH]1
# Method: phase 2a trial
# Species: idiopathic pulmonary fibrosis patients
setting,patients with nasopharyngitis
"60 mg once daily, grade 5 emergent event",0%
"all arms pooled, grade 2 emergent event",0%
"30 mg once daily, grade 1 emergent event",0%
"60 mg once daily, grade 3 emergent event",0%
"30 mg once daily, grade 4 emergent event",0%

# Block 3
# Target: Receptor-interacting serine/threonine-protein kinase 2 (RIPK2, Homo sapiens, UniProt O43353)
# Sequence of UniProt O43353 (whole entry, looked up): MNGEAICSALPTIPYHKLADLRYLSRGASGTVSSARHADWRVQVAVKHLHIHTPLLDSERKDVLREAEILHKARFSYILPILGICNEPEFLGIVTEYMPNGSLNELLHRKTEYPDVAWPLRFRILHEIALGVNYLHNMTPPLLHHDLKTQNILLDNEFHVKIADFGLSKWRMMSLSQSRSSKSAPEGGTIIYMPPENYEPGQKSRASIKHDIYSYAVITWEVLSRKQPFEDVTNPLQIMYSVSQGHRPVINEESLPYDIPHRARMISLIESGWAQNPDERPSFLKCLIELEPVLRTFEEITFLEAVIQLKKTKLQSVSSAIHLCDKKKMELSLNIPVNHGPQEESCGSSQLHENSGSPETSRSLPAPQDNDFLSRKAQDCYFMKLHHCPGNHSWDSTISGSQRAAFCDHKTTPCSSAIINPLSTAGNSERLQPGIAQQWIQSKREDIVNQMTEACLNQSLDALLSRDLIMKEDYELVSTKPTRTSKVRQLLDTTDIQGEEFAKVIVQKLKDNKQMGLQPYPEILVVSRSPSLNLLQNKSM
# Observed: enzyme activity
# Mode: inhibitor
# Tested at: 0.5 µM
# Reference: control
Structure (SMILES),remaining activity [%]
COc1cc2ncnc(N3CCN(C(=O)Nc4ccc(Oc5ccccc5)cc4)CC3)c2cc1OC,93.7
Cc1nc(Nc2ncc(C(=O)Nc3c(C)cccc3Cl)s2)cc(N2CCN(CCO)CC2)n1,25.2
CS(=O)(=O)CCNCc1ccc(-c2ccc3ncnc(Nc4ccc(OCc5cccc(F)c5)c(Cl)c4)c3c2)o1,110
CC(C)c1nn(-c2c(Cl)cccc2Cl)c2nc(Cc3ccc(OCCO)cc3)[nH]c(=O)c12,89.3
CCC(=O)Nc1ccc2ncnc(Nc3cccc(Br)c3)c2c1,71.4
COc1cc2ncnc(Nc3ccc(OCc4ccccc4)cc3)c2cc1OC,61.6
Nc1[nH]nc2nnc(-c3c(-c4ccccc4)nn4ccccc34)cc12,87
O=C1NC(=O)/C(=C/c2ccc3nccnc3c2)S1,76.8
COc1cc2ncc(-c3ccccc3)nc2cc1OC,90.3
Cn1cc(/C=C2\C(=O)Nc3ccc(S(N)(=O)=O)cc32)c2ccccc21,74.2
O=c1cc(N2CCOCC2)oc2c1ccc1ccccc12,104
COc1ccc(Cl)cc1NC(=O)Nc1cc(C)nc2ccccc12,82.7
O=C(Nc1ccc(Cl)cc1)c1ccccc1NCc1ccncc1,82.9
CCOc1cc2ncnc(Nc3cccc(Br)c3)c2cc1OCC,39.8
Cc1ccc(NC(=O)c2ccc(CN3CCN(C)CC3)cc2)cc1Nc1nccc(-c2cccnc2)n1,102
Cn1cnc2cc3c(Nc4cccc(Br)c4)ncnc3cc21,35.6
CN(C)CCCn1cc(C2=C(c3c[nH]c4ccccc34)C(=O)NC2=O)c2ccccc21,87.7
CCN1/C(=C/C(C)=O)Sc2ccc(OC)cc21,86.3
CC(C)[C@H](CO)Nc1nc(Nc2cccc(Cl)c2)c2ncn(C(C)C)c2n1,88.1

# Block 4
# Cell line: A-375
# Tested at: 100 µM
# Time: 18 h
Structure (SMILES),viability
CC(Cc1cccc(C(F)(F)F)c1)NCCOC(=O)c1ccccc1 (centres unmarked),8.3%
c1ccc([C@H]2CN3CCSC3=N2)cc1,101%
CCOC(=O)C1=C(C)NC(C)=C(C(=O)OCC)C1c1ccccc1/C=C/C(=O)OC(C)(C)C,9.9%
CCCCCCCCCCC[C@@H](C[C@@H]1OC(=O)[C@H]1CCCCCC)OC(=O)[C@H](CC(C)C)NC=O,22.8%
COc1ccc2c(c1)C(=O)N(CCc1ccc(S(=O)(=O)NC(=O)NC3CCCCC3)cc1)C(=O)C2(C)C,68.3%
CC1(C)CCC(C)(C)c2cc(NC(=O)c3ccc(C(=O)O)cc3)ccc21,62.7%
CC(N)[C@]12C[C@H]3C[C@H](C[C@H](C3)C1)C2 (some centres unmarked),73.7%

# A few entries again (block 1):
target,remaining binding
"Ribosomal protein S6 kinase alpha-1, N-terminal kinase domain (RPS6KA1, Homo sapiens, UniProt Q15418)",100%
"PDPK1 (Homo sapiens, UniProt O15530)",100%
"RIOK2 (Homo sapiens, UniProt Q9BVS4)",100%
"MAPK14 (Homo sapiens, UniProt Q16539)",100%
"TSSK1B (Homo sapiens, UniProt Q9BXA7)",100%
